Assay results gathered from unrelated publications.
Each numbered part is a random draw from the data of one study; scales do not carry over between parts. Positions count from the first letter of the parent shown.

Sample 1 — technique: RNA Bind-n-Seq; molecule type: RNA; medium: in vitro; concentration: 100 nM; relative to: input RNA pool; reading: higher = stronger binding
Target: RING finger protein unkempt homolog, zinc fingers 1-6, SBP tag (UNK, Homo sapiens, UniProt Q9C0B0, residues 30-357)
Chain of UniProt Q9C0B0 (30-357, looked up): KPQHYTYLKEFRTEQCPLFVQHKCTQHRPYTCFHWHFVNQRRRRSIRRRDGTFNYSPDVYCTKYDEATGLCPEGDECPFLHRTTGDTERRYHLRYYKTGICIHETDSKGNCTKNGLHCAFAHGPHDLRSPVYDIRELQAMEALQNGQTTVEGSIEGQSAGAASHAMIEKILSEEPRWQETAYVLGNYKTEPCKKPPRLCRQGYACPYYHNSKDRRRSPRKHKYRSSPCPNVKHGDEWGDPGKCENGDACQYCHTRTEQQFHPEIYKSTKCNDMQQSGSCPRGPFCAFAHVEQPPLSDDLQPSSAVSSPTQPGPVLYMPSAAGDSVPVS
Notes: RNA with constant flanks, vertebrate orthologous sites, ends assumed
Constant ends, left off below: GGGAGUUCUACAGUCCGACGAUC … CAACAGAGGAUUGAGCAUCA
| Sequence | bound/input enrichment [ratio] |
| --- | --- |
| AGCUCUAGUUCUUAACAACAGACACUCCUAAGAUUUUAGAAAAGAGUUUACAACAUGACCUAGUUUACAAAAAGUCUUGUGCUGAAUACUUUUUAAAGUAUUUUUGAAUACCAUCAAAAC | 0.798 |
| CCUCAACUUGUGCUAGCUUGAAAUCCUUCAAAGUUGGGGUCAGGCAUUAGUGCUGGGUACUAGAAAAUUUGAUUUCUCUGUUGCCACCAACGAGAGACACAGAUGUUAAAAACAGAAAUA | 0.467 |
| AAGAUGGUGGUUGUACAUUAUUUCAUUUAGAAAAUAUAAAAAUUCAUUUUGUUUUGAAGCUAGGUGUUAAACUGGAAUAGCUCUUAUACCCCAGAGAAUGGGGGCAGUUGUGCCCUUCCC | 1.17 |
| AGAAACUUUUAGUCGUGAAUCUGAAGGUAGGAAUACGGGCCCAUGGUUAUCUUCCUCACUUAGAAAUAGAUGUACACCUUUGUUCUCUAGAAGGAGAAGAGAGGGAAGAGAUGAAUCUUC | 0.806 |
| UUGUAUAACAAUAAAGAAAUCCAAAAUGUUAUGUCUCCCUUUGCUUCUACCCCUCUGGUUUCUCUUCUCAAAGCGACGUUCCUGCGACGUGCACGAGCGUGCUCACAUGUUAUUAAAGCG | 0.295 |
| CAACUCAAUGGUUGAGGGCUCCGAACUCAAAAAGGUCCGUUCCAACUCCAGGAUUUACCAUCGGUACUUUUUGCUGGAUGCUGACAUGCAAAGCCUGAGGUGGGAGCCGUCUAAGAAGGA | 0.146 |
| CGUGCUUAUGCUCUUCUAUGAGAGAGAUGAAUUGGGGAGAAUUGUCUCCAUUUUAUAGAUUAGUUUCUUUCUAAAUUAUGACCAAAAAUAUUUUGCUAUUUCUUUCUUUGUAUAUGGACA | 0.733 |
| GCACAUGCCGCUCUCACCAAAAGCAAACUGCCACUUAUCAAAUUUCAUUCAGAGUUGUUUUAGUGUUUCCUAUUCCCUACCCUUCCCCCUCCUUUCAAUGCUGAAAUAUCCUAAGUUGUC | 1.93 |
| UGCCCCCACCCACUGUGAGAGGGAAUGGGGGAAGCCUGAUGACCCUCAGCUGUUCCAAUCUAGUAUUUUUUUUUUCUUUUUUAAAAUUACUGUAUUUAUUAUGACGACGGUGACUCCCCA | 3 |
| CUUGAUUCACAUUCCUCUCUGUUUGUGUUUAGAGAAAGAAAGGGGGGAACAAAAGACAUUUUAGCCUUUUUUAAAGUUACUGAUAUAAUUUCUUGUUACUUGGUUGCAUGAAGCUGCCCU | 0.734 |
| UUUUAUUGAUCAGGUCUGUAAAUGUGUACUAAAAAAAUCAGAGUUUAUUUAUAAACAGAAUAGUUUAUUUAAAGAGAAGGUCUUUUCCUUAUUGAUAUCAUGGUAUGCAUUAAUUCCAUU | 0.147 |

Sample 2 — technique: protein binding microarray; molecule type: double-stranded DNA, one strand shown; medium: in vitro; concentration: not given; relative to: not given; reading: higher = stronger binding
Target: Histone acetyltransferase KAT6A, winged helix 1, GST fusion (KAT6A, Homo sapiens, UniProt Q92794, residues 1-85)
Notes: 8-mer, flanks averaged, mean of 2 arrays, mostly near background
Target sequence (chain): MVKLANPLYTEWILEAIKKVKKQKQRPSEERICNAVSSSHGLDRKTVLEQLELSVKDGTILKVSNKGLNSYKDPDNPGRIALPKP
| Sequence | E-score |
| --- | --- |
| TCTAAAGA | -0.0854 |
| ATAGACGC | 0.175 |
| CGACAACG | 0.0323 |
| GATGATAC | -0.0722 |
| CTGAACCA | -0.292 |
| TTCGACAA | -0.251 |
| GAGATAGA | -0.147 |
| TGAGGGCA | -0.144 |
| AAACATAA | -0.122 |
| AGAAAATA | -0.213 |
| GTTAAAAA | -0.128 |
| ATAAACAG | -0.216 |
| AGTTCTCA | -0.174 |
| GAATTTCA | -0.138 |
| CCCGACAG | 0.191 |
| CCTTCTCA | -0.151 |
| AGTTAAAA | -0.124 |
| GCAGTATA | -0.0596 |
| GGGTAGAC | 0.167 |
| CAGCGGTC | 0.197 |
| ATTGGCGA | -0.123 |
| GTGGAACA | -0.0288 |

Sample 3 — target: CCND3, cyclin fold, Cln2 fusion (human); technique: yeast growth competition, sequencing; medium: yeast; notes: weak parent motif; relative to: not given; reading: higher = stronger binding
Starting sequence: ORC1 docking peptide (human); PRARKRLELGNLG
| Variant | normalised enrichment score |
| --- | --- |
| R2W | 0.217 |
| L12C | 0.151 |
| K5N | 0.108 |
| R6N | 0.108 |
| R6Y | 0.207 |
| R6E | 0.116 |
| L7G | 0.0483 |
| R2N | 0.136 |
| R4G | 0.141 |
| R4A | 0.116 |
| A3Q | 0.252 |
| L12N | 0.136 |
| G10D | 0.138 |
| E8D | 0.28 |
| R6G | 0.277 |
| R2A | 0.149 |
| P1Q | 0.226 |
| L9V | 0.243 |
| R2M | 0.173 |
| E8T | 0.0455 |
| G10I | 0.115 |
| E8Y | 0.129 |
| L7M | 0.122 |
| R2K | 0.0368 |

Sample 4 — technique: universal PBM; molecule type: double-stranded DNA, one strand shown; medium: in vitro; concentration: not given; reading: higher = stronger binding
Target: Sal-like protein 4, full length isoform B (SALL4, Homo sapiens, UniProt Q9UJQ4-2, residues 1-616)
Notes: 8-mer, flanks averaged, mean of replicates
Residues (chain): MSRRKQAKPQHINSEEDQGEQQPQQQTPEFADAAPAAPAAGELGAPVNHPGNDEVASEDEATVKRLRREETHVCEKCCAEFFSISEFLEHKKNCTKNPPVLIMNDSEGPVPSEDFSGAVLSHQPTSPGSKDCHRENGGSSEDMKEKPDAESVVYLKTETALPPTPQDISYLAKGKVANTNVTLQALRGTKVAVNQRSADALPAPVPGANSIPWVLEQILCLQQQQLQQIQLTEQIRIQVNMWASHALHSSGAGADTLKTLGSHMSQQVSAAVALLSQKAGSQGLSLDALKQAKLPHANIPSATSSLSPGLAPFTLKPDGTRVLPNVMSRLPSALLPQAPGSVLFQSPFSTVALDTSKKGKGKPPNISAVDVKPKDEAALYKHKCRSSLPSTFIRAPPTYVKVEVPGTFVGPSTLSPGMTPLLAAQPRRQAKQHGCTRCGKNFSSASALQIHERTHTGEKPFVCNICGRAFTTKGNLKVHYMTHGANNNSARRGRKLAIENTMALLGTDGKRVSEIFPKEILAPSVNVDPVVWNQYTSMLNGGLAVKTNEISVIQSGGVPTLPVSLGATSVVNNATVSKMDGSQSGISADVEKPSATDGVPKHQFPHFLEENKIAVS
| Sequence | E-score |
| --- | --- |
| AAGGATTG | 0.0908 |
| CTGGAAGA | -0.146 |
| AACGATAC | 0.163 |
| AAGGATGC | -0.0531 |
| CCCGATTA | -0.0368 |
| TCGGCAGA | -0.188 |
| GTCCCGAC | -0.258 |
| ATAACGTC | 0.268 |
| ACAATTGG | -0.0668 |
| GAAGAGGA | -0.152 |
| AAGAGTAA | 0.238 |
| AACGCTAG | -0.0559 |
| CAACAACG | 0.012 |
| AAACATCC | -0.0538 |
| GACCGGGA | -0.35 |
| CGATGAAA | 0.22 |
| GTGACTAA | 0.0754 |
| GGGGGGAA | -0.0392 |
| ACGGAGGG | -0.11 |
| CCTGTCGA | -0.181 |

Sample 5 — technique: RNA Bind-n-Seq; molecule type: RNA; medium: in vitro; concentration: 365 nM; relative to: no-protein control; reading: higher = stronger binding
Target: RNA binding protein fox-1 homolog 2, RRM domain, GST-SBP tag (RBFOX2, Homo sapiens, UniProt O43251-10, residues 100-194)
Notes: natural RNA segment, single round, ends assumed
Constant ends, left off below: GGGAGUUCUACAGUCCGACGAUC … UGGAAUUCUCGGGUGCCAA
Target sequence (chain): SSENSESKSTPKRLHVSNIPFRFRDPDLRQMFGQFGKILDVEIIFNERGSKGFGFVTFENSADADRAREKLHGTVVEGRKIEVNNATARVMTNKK
| Sequence | RBNS enrichment (R) |
| --- | --- |
| UGAUCCACGAAGGUGGUGCCCACAUCUAUGUCUGCGGGGAUGCUCGAAAUAUGGCCAAAGAUGUGCAGAACACAUUCUAUGACAUCGUGGCCGAGUUUGGGCCCAUGGAG | 0.305 |
| GGAUGUAUUCCAGAGCCUGAUGUUUUUAUUCAAACCACAGAAAAGUUUUCUUUAAGUAGCCUGUGCAGUCAUGCAUGUGCCUGAGUUGUCUGGAGCAGAGGCAAACAUCU | 1.65 |
| AAACAGAGAUCAGAUGAAGAUAACAAGCCAGAUGCUGGUCCUGAUGCUGCCGGCAAGGAGAGUGCAGCAAGAGAGAAAAUCCUCAGGGCUGAACCUGAGAUCUUGGAACU | 0.671 |
| CAAUCGAUGACCUCAUGCCGGCCCAGAAGUGAAGCCUGGCCCUCGCCACCAUCAGGCUGCCGCUUCCUAACUUAUUAACCGGGCAGUGCCCGCCAUGCAUCCUUGAUGUU | 0.557 |
| UGGACCUGUGAAGCCAUGGGCAGGUAGUGCCCUCUUGAGAGUCAUUUUAUUUGGCCACCUUCAGGUGAGACUAUCCAUAGACACAUGCUAGGAUAGGCCCCGCUGGGAGG | 0.369 |
| GCCUUACUGUAAGUGCAAUAGUUGACUUUUAACCAACCACCACCACCACCAAAACCAGUUUAUGCAGUUGGACUCCAAGCUGUAACUUCCUAGAGUUGCACCCUAGCAAC | 0.356 |
| GGGUCAGCAGCACUGGGUGUCUAGAGAAAUUUGGCCUGGCCCAUUUGAAGGCAACAAGAACCAAACAGGAUCUUGUCAUCACAUCUGAAUAAAGCUCCAUGAGCUGGCUG | 0.288 |
| CAUGCCCCGCGCCUGAGACUGGCUGGAAAUGCUCUGACUCCUGUGAAGGCACAGCCAGCGUUGUGGCCUGAGGGAGGCCCUGCUGGGACCCUGAUCUGGGCCUUCCUGUC | 0.476 |
| UGACAGUGGUGCCCUAUGGAAGGGCACCUAGUUGGCUAGGGGUGUAGGCUGAGCUGAGAGGGGUGUUCUUUGGCAAGGUUCUCCCUCCUCUAGUUUCUCCCAGGAGCUGG | 0.497 |
| UCUUGCCUACUCCGGUGCCUCUACUUGACUGGCCAAUCAGCCCUUGAGGGGCAGGUUCCCCCAGGUGGUCCCCAGAUUUGCACUAAUGUUCCUCCCCUGGCCAGUUAGGG | 0.372 |
| UGAGAGGUAACAAAUAGGGAGAUACGGGUUGAGACUGCAUAAAAAACGUACUGCUGGUUGAAUAUCUGAGGUAAAUGAUGUUUAAUCAAGAUGCUACUUGUAUCUUUGUC | 0.6 |
| AGCCCAACACCACCUUCCUCCUGGCUUCCAGGGGGCAGCCCAGUGGAAUGGAAAGAAUGUGGGAUUUGGAGUCAGACAAGCCUGAGUCCAGUUCCCCGUUUAGAACUCAU | 0.192 |

For quick reference, copied from above (sample 4):
| Sequence | E-score |
| --- | --- |
| TCGGCAGA | -0.188 |
| GTCCCGAC | -0.258 |
| ATAACGTC | 0.268 |
| ACAATTGG | -0.0668 |
| GAAGAGGA | -0.152 |
| AAGAGTAA | 0.238 |
| AACGCTAG | -0.0559 |
| CAACAACG | 0.012 |
| AAACATCC | -0.0538 |
| GACCGGGA | -0.35 |
| CGATGAAA | 0.22 |
| GTGACTAA | 0.0754 |
| GGGGGGAA | -0.0392 |
